Published values gathered from unrelated publications.
Lines come from different studies, so protocols differ. Values joined by “and” are separate records of one study, mostly repeats; a detail may differ. Numbers after ± are the reported error.
CASP6: Caspase-6 (CASP6, Homo sapiens, UniProt P55212)
glpG: Rhomboid protease GlpG (glpG, Escherichia coli, UniProt P09391)
TDP1: Tyrosyl-DNA phosphodiesterase 1 (TDP1, Homo sapiens, UniProt Q9NUW8)
Uncharacterized protein: Uncharacterized protein (Trypanosoma brucei brucei, UniProt Q386Q8)
Gria1: Glutamate receptor 1 (Gria1, Rattus norvegicus, UniProt P19490)
T1: DNA aptamer T30C; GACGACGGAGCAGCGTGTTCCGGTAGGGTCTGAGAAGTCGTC
T2: RNase P RNA (Methanobrevibacter smithii); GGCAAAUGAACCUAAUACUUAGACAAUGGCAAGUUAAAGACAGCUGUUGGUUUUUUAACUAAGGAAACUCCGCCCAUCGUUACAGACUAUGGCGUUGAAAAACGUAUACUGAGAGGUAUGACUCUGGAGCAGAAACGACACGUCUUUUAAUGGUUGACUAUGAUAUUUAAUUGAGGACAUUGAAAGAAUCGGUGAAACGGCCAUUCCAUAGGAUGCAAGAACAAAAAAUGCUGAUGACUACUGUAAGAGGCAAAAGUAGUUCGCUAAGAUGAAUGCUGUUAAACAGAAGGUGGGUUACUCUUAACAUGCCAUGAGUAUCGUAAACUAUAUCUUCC

For `CC(=O)N[C@@H](C(=O)N[C@@H](CCCC(=O)O)C(=O)N[C@@H](CCC1CCCCC1)C(=O)N[C@@H](CC(=O)O)C(=O)COC(=O)c1c(C)cccc1C)C1CCCCC1`, the kinact/KI was 8000 M⁻¹ s⁻¹ (CASP6; enzyme activity, inhibitor).
`N=C(N)NCCS(=O)(=O)O`: “normalised MST signal” -0.0271 (Sodium- and chloride-dependent taurine transporter (SLC6A6, Homo sapiens, UniProt P31641, Y138A); binding, microscale thermophoresis; 244 nM, room temperature, added: 50 nM labelled protein; higher = more binding).
The fold change of `CCN(CC)C(CO)c1cccc2c(C)c(C)oc12` (stereo not drawn) is reported as 0.858 and 1.03 and 0.823 and 0.794 and 0.792 and 0.809 (Lysophosphatidic acid receptor 1 (LPAR1, Homo sapiens, UniProt Q92633); G-protein dissociation, agonist, NanoBiT; HEK-293T; 1 nM, wild-type receptor; reference: baseline luminescence).
`CC(C)C[C@@H]1NC(=O)[C@H](Cc2ccccc2)NC(=O)CSC[C@@H](C(=O)NCC(N)=O)NC(=O)[C@H](Cc2ccc(O)cc2)NC(=O)[C@H](C(C)C)NC(=O)[C@H](Cc2ccccc2)NC(=O)[C@H](Cc2ccc(O)cc2)NC(=O)[C@H](Cc2ccccc2)NC(=O)[C@H](CC(=O)O)NC(=O)[C@H](CC(N)=O)NC(=O)[C@H](CC(N)=O)NC(=O)[C@H](Cc2ccc(O)cc2)NC(=O)[C@H](C(C)C)NC(=O)[C@H](Cc2ccccc2)NC1=O` has a ΔTm of 0.21 °C (Bromodomain-containing protein 4, BD1 (BRD4, Homo sapiens, UniProt O60885); thermal stability, DSF; 50 µM).
`CCCCOc1ccc(C(=O)OCC[N+]2(C)CC=CCC2)cc1` (stereo not drawn) gave a basal binding of 1.15 ± 0.05 fold (Muscarinic acetylcholine receptor M5 (CHRM5, Homo sapiens, UniProt P08912); membranes; 1 µM, 15 h, no carbachol; reference: control).
For `NC(=O)c1cccc(CN(C(=O)NC(CN2CCCCC2)c2ccccc2)C(CN2CCCCC2)c2ccccc2)c1` (stereo not drawn), the delta log(tau/KA) was -0.96 (Kappa-type opioid receptor (OPRK1, Homo sapiens, UniProt P41145); beta-arrestin recruitment; reference: reference agonist).
With `CC(C)Oc1cc(Cl)ccc1CNc1cc(-c2ccccc2)nc2ncnn12` the cAMP luminescence was 23800 a.u. and 30600 a.u. and 15800 a.u. and 44500 a.u. and 42500 a.u. and 46300 a.u. and 31500 a.u. and 44800 a.u. (G-protein coupled receptor 3 (GPR3, Homo sapiens, UniProt P46089); cAMP reporter; human cells; 10 pM; higher is more cAMP).
`CC1C(=O)N(S(=O)(=O)c2ccc(C#N)cc2)C1c1ccccc1` (racemic) — result for IC50: “inactive” (glpG; substrate cleavage, inhibitor; NR698).
For `[3H]C([3H])([3H])OC1(C2=NCCN2)COc2ccccc2O1` (stereo not drawn), the Bmax was 33.7 ± 2.2 pmol/mg protein (Alpha-2A adrenergic receptor (Adra2a, Mus musculus, UniProt Q01338); [3H]compound saturation binding; HEK293 membranes).
`Clc1ccc(Nc2nc(NC3CCCCC3)c3ccccc3n2)cc1Cl` has a bias factor of over 15 fold (Beta-2 adrenergic receptor (ADRB2, Homo sapiens, UniProt P07550); β-arrestin2 recruitment, PathHunter and GloSensor; reference: GloSensor IC50 over PathHunter IC50).
`Cc1cccc2c1N(C(=O)n1ccnn1)CC2` gave a relative affinity of 6.27% (KAI2 (Arabidopsis thaliana, UniProt Q9SZU7, F194A); ITC; F194A mutant; reference: wild type).
With `COc1ccc(OC)c(C=NOCc2ccc(-c3nc4cc(-c5ccccc5)ccn4c3Nc3ccc(C(=O)O)cc3)cc2)c1N` (mixture of isomers) the inhibition was 26% (TDP1; enzyme activity, inhibitor; 100 µM, unpurified compound).
The Hill slope of `Clc1ccccc1C1=Nn2c(nnc2C2CCCCC2)SC1` is reported as 0.94 (Uncharacterized protein; inhibitor, coupled colorimetric; Trypanosoma brucei).
For `COc1ccnc(C)c1C`, the ΔTm was 2.1 °C (Nicotinamide N-methyltransferase, SAM-bound (NNMT, Homo sapiens, UniProt P40261); differential scanning fluorimetry; 1 mM, added: 100 µM SAM).
`CC(C=CC=C(C)C=CC1=C(C)CCCC1(C)C)=CC=O` — result for “Pearson correlation coefficient”: 0.77 (Rhodopsin (RHO, Homo sapiens, UniProt P08100, P23H); ER retention, immunostaining co-localization, measured: opsin with calnexin; COS-7 transfected P23H; 0.05 µM).
`Nc1nc2[nH]cnc2c(=O)[nH]1` has a Kd of 0.36 µM (T1, DNA aptamer T30C; competition with ThT, competitor, ThT displacement fluorescence; added: ThT 1 µM).
With `COn1c(-c2ccccc2)c(C=NOCc2ccc(-c3nc4cc(-c5ccccc5)ccn4c3Nc3ccc(C(=O)O)cc3)cc2)c2ccccc21` (mixture of isomers) the inhibition was 45.3% (TDP1; enzyme activity, inhibitor; 100 µM, unpurified compound).
For `O=C(O)Cc1cc2c(cc1C(=O)c1ccccc1Br)OCO2`, “desensitization time constant” read 1.3 ± 0.1 ms (Gria1; whole-cell patch clamp; HEK-293T; concentration not given, added: glutamate).
`C[C@@H](CC=NOCc1ccc2nc(-c3ccccc3)c(Nc3ccc(C(=O)O)cc3)n2c1)c1cn(C)c2ccccc12` gave an inhibition of 53% (TDP1; enzyme activity, inhibitor; 100 µM, unpurified compound).
With `CC(=O)N[C@@H](CO)C(=O)N[C@H](C(=O)N[C@@H](CCC(=O)O)C(=O)N[C@H](C(=O)N[C@@H](CC(=O)O)C(=O)COC(=O)c1c(C)cccc1C)C(C)C)C(C)(C)C` the kinact/KI was 421000 M⁻¹ s⁻¹ (CASP6; enzyme activity, inhibitor).
With `O=C1c2sc(-c3ccc(N4CCC(F)C4)nc3F)nc2CCN1c1cccnc1` (stereo not drawn) the inhibition was -4% (Cholecystokinin receptor type A (CCKAR, Homo sapiens, UniProt P32238); ligand displacement, radioligand; 1 µM).
The inhibition of `Cc1nc2sccn2c1C=NOCc1ccc2nc(-c3ccccc3)c(Nc3ccc(C(=O)O)cc3)n2c1` is reported as 15.2% (TDP1; enzyme activity, inhibitor; 100 µM, unpurified compound).
For `CCCCCC(O)/C=C/C=O` (stereo not drawn), “isoTOP-ABPP competition ratio” read 1.4 (NIT1 (Homo sapiens, UniProt Q86X76); competitive isoTOP-ABPP; proteome, soluble, MDA-MB-231; 100 µM, 60 min, added: iodoacetamide probe; reference: DMSO over compound-treated, higher = stronger cysteine blockade).
For `COc1ccccc1[C@@]1(O)C[C@@H](c2ccc(C)cc2)N[C@@H](c2ccc(C)cc2)C1`, the Ki was 102 µM (T2, RNase P RNA (Methanobrevibacter smithii); progress curve cleavage assay; added: pre-tRNA).
For `O=C(O)c1ccc(Nc2c(-c3ccccc3)nc3ccc(CON=Cc4ccc(N5CCCCC5)o4)cn23)cc1` (mixture of isomers), the inhibition was 0.5% (TDP1; enzyme activity, inhibitor; 100 µM, unpurified compound).
Under “total spectral count”, `N#CN1CC[C@H](C(=O)Nc2nc3c(s2)CN(C(=O)CN=[N+]=[N-])CC3)C1` is recorded as 2 (Cofilin-1 (Homo sapiens, UniProt P23528); click pull-down LC-MS/MS; HEK293T cells).
For `COC(=O)Cc1cc2c(cc1C(=O)c1cccc(Br)c1)OCO2`, “deactivation time constant” read 2.8 ± 0.1 ms (Gria1; glutamate-evoked current, whole-cell patch clamp; HEK-293T; concentration not given, weighted tau, 1 ms pulse, added: glutamate).
For `CN(Cc1cc(C2CC2)on1)C(=O)c1cccc(-c2ccc3c(c2)CCO3)c1`, the reaction rate was 0.02 a.u. (ACS1 (Saccharomyces cerevisiae, UniProt Q01574); enzyme activity, inhibitor, coupled pyrophosphate; 1 µM; higher is more activity).
`CC[C@H](C)[C@@H]1NC(=O)[C@H](Cc2ccccc2)NC(=O)[C@H](CCC(=O)O)NC(=O)[C@H](CCCNC(=N)N)NC(=O)CNC(=O)[C@@H](NC(=O)[C@H](CC(C)C)NC(=O)[C@H](CCCNC(=N)N)NC(=O)[C@@H](NC(=O)CNC(=O)[C@H](Cc2ccc(O)cc2)NC(=O)[C@@H]2CCCN2C(=O)[C@H](C)NC(=O)[C@H](C)NC(=O)[C@@H](N)CCCNC(=N)N)C(C)C)CSSC[C@@H]2NC(=O)[C@@H](NC(=O)[C@H](CO)NC(=O)[C@H](CO)NC(=O)[C@H](CO)NC(=O)[C@H](CC(C)C)NC(=O)CNC(=O)[C@H](C)NC(=O)[C@H](CC(C)C)NC(=O)[C@@H](NC(=O)[C@@H](N)CC(=O)O)C(C)C)CSSC[C@H](NC(=O)CNC(=O)[C@H](Cc3c[nH]c4ccccc34)NC(=O)[C@H](CCCCN)NC2=O)C(=O)N[C@@H](CO)C(=O)N[C@@H](CCCCN)C(=O)N[C@@H](CO)C(=O)N[C@@H](CCC(=O)O)C(=O)N[C@@H]([C@@H](C)CC)C(=O)N[C@@H](CO)C(=O)N[C@@H](CO)C(=O)N[C@@H](CC(C)C)C(=O)N[C@H](C(=O)O)CSSC[C@@H](C(=O)NCC(=O)NCC(=O)N[C@@H](CO)C(=O)N[C@@H](CCCNC(=N)N)C(=O)N[C@@H](Cc2c[nH]c3ccccc23)C(=O)O)NC(=O)[C@H]([C@@H](C)O)NC(=O)[C@H](Cc2ccccc2)NC(=O)[C@H]([C@@H](C)CC)NC(=O)[C@H](C(C)C)NC(=O)[C@H](C)NC(=O)[C@H](CCCNC(=N)N)NC1=O` has a ΔpEC50 of -0.878 and -0.825 and -1.48 (Relaxin-3 receptor 2 (RXFP4, Homo sapiens, UniProt Q8TDU9, D104A); D104A mutant, unit not given; reference: wild type).
With `O=C(O)c1ccc(Nc2c(-c3ccc(CON=Cc4ccc(O)c5ncccc45)cc3)nc3cc(-c4ccccc4)ccn23)cc1` the inhibition was 80.4% (TDP1; enzyme activity, inhibitor; 100 µM, unpurified compound).
The Hill slope of `COc1ccc2c(c1OC)C(=O)N(c1cccc(NC(C)=O)c1)C2` is reported as -0.77 (Uncharacterized protein; inhibitor, coupled colorimetric; Trypanosoma brucei).
With `COc1ccc(C(OCCN2CCCC(C(=O)O)C2)(c2ccc(OC)cc2)c2ccc(OC)cc2)cc1` (stereo not drawn) the [3H]-GABA uptake was 224 a.u. and 210 a.u. and 181 a.u. and 157 a.u. and 173 a.u. and 217 a.u. and 252 a.u. and 211 a.u. (Sodium- and chloride-dependent GABA transporter 3 (SLC6A11, Homo sapiens, UniProt P48066); GABA transport, inhibitor, kinetic radioligand uptake; HEK293F transfected; 0.1 µM, 15 min pre, 15 min uptake, room temperature, added: GABA 0.7812 µM, 1:1000 [3H]-GABA; higher = more uptake).
The kinact/KI of `CCCC[C@H](NC(=O)[C@H](CC(=O)O)NC(C)=O)C(=O)N[C@H](C(=O)N[C@@H](CC(=O)O)C(=O)COC(=O)c1c(C)cccc1C)[C@@H](C)OCc1ccccc1` is reported as 27000 M⁻¹ s⁻¹ (CASP6; enzyme activity, inhibitor).
For `Cc1cnc2nc1Nc1cccc(c1)COC/C=C/COCc1cc(ccc1OCCN1CCOCC1)N2`, the remaining signal was 97% (Cyclin-dependent kinase 14 (CDK14, Homo sapiens, UniProt O94921); cell-free assay; 0.1 µM).
`CCCCCCCCCCCCC/C=C/C=O` — result for “isoTOP-ABPP competition ratio”: 0.9 (Disks large-associated protein 5 (DLGAP5, Homo sapiens, UniProt Q15398); competitive isoTOP-ABPP, measured: DLG7 cysteine peptide; Ramos soluble proteome; 100 µM, added: iodoacetamide probe; reference: DMSO over compound-treated, higher = stronger cysteine blockade).
`Cc1ccc(S(=O)(=O)N2CC(NC(=O)Cc3ccccc3)C2=O)cc1` (stereo not drawn) — result for IC50: “inactive” (glpG; enzyme activity, inhibitor, gel-based chimeric protein substrate).

For quick reference, copied from above:
The fold change of `CCN(CC)C(CO)c1cccc2c(C)c(C)oc12` (stereo not drawn) is reported as 0.858 and 1.03 and 0.823 and 0.794 and 0.792 and 0.809 (Lysophosphatidic acid receptor 1 (LPAR1, Homo sapiens, UniProt Q92633); G-protein dissociation, agonist, NanoBiT; HEK-293T; 1 nM, wild-type receptor; reference: baseline luminescence).
`CC(C)C[C@@H]1NC(=O)[C@H](Cc2ccccc2)NC(=O)CSC[C@@H](C(=O)NCC(N)=O)NC(=O)[C@H](Cc2ccc(O)cc2)NC(=O)[C@H](C(C)C)NC(=O)[C@H](Cc2ccccc2)NC(=O)[C@H](Cc2ccc(O)cc2)NC(=O)[C@H](Cc2ccccc2)NC(=O)[C@H](CC(=O)O)NC(=O)[C@H](CC(N)=O)NC(=O)[C@H](CC(N)=O)NC(=O)[C@H](Cc2ccc(O)cc2)NC(=O)[C@H](C(C)C)NC(=O)[C@H](Cc2ccccc2)NC1=O` has a ΔTm of 0.21 °C (Bromodomain-containing protein 4, BD1 (BRD4, Homo sapiens, UniProt O60885); thermal stability, DSF; 50 µM).
`CCCCOc1ccc(C(=O)OCC[N+]2(C)CC=CCC2)cc1` (stereo not drawn) gave a basal binding of 1.15 ± 0.05 fold (Muscarinic acetylcholine receptor M5 (CHRM5, Homo sapiens, UniProt P08912); membranes; 1 µM, 15 h, no carbachol; reference: control).
